Measured values pooled from the literature.
Each numbered part is a random draw from the data of one study; scales do not carry over between parts.

Study 1 — method: RNA Bind-n-Seq; molecule type: RNA; medium: in vitro; tested at: not given; reference: input RNA pool; reading: higher = stronger binding; quantity: bound/input enrichment
Target: RING finger protein unkempt homolog, zinc fingers 1-6, GST-SBP tag (UNK, Homo sapiens, UniProt Q9C0B0, residues 30-357)
Setting: RNA with constant flanks, human and mouse sites, ends assumed
Residues (chain): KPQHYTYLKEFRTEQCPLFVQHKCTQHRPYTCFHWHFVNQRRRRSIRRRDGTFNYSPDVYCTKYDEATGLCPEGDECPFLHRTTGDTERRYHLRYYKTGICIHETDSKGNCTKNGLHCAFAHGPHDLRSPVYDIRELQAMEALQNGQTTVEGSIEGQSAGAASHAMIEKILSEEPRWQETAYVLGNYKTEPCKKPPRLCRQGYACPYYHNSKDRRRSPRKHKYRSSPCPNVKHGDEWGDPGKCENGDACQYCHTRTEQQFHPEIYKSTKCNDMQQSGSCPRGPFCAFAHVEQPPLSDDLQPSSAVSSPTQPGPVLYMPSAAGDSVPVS
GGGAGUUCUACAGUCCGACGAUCCACCCCAAAGGUCGCGAUAAUAUUAUUGACCUCUUCCUUUAUCAGCCACAAUAUCUUAAUGCAAUUCAGACAAUGUGUCCACACAUUCUUCGCUAUUUGACUACAGCAGUCAUAACAAACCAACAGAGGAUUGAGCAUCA: 0.586 ratio
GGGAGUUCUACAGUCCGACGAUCUGUUUGUUUGUUUGUAGUCUUGAUGCUCUCCUGUGGUUUACUUCCCUUCUGAUAGGACACUAUAGCCAGUCUCAGCACUCGUAAGUGCGGAGGGCCACAUCCAGGAAAGAAGGCAGAGCCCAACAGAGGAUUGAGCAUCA: 0.596 ratio
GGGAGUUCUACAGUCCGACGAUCGCGCGAGCAGAGCGCGGUUGACCUCCCUUUCUCUGCUCAGCUCCAGCGUCAUUUCGGCCUCUUAGUUCUUCUGAACCCUGCUCCUGAGCUAGGUAGGAAACAUGAGCGGCACCAACUUGGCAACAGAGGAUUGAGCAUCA: 0.0377 ratio
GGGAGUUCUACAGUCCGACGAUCAUGGAUUUCUGUAGCCAUACCAAAGCCAGGGUGUUUUCAUUCAUGCGGAUACUAGUAUUUAUAGAUGUCUGACUACCUAACUUAAUUUUUGUUUUUGAACUUCUAAUUGGGGCCAGUGUACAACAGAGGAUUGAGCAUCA: 1.71 ratio
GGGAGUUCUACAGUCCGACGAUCCGAGGGCUCCAGGCACUGGGCCAGACCUUCGGGGCCAACCCAGCCUUUGCCAGCUCCCUCCGAUACCUGGACCUGAGCAAGAACCCAGGGCUGCUUGCCACAGACGAGGCCAAUGCCCUCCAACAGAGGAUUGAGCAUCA: 0.23 ratio
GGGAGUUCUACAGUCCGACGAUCGCAAAAGUUUAUAUCAUAUUGGAUCAACCUGUGACUGCUUUAAAUCUAUUUAAACAAGGCUUAGAUAAGUUUCCAGGAGAGGUGACCCUGCUUUGUGGAAUUGCCAGGAUCUAUGAGGAACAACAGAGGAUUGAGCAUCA: 0.297 ratio
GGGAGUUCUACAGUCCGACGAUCGCGUAUGCAGCAGAUGGUUGGCCAGCUGGGCAUCCUGACGCCGUCCCUCACCCUGCCCUUCAGCCCCUACAGUGCCUACGCCCAGGCUCUCAUGCAGCAACAGACAACAGUGUUGUCCACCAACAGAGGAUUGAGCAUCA: 0.145 ratio
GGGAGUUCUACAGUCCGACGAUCUUUUAUUGAUCAGGUCUGUAAAUGUGUACUAAAAAAAUCAGAGUUUAUUUAUAAACAAAAUAGUUUAUUUAAAGAGAAGGUCUCUUCCUUAUUGAUAUCAUGGUAUGCAUUAAUUCCAUUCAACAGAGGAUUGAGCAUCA: 8.31 ratio
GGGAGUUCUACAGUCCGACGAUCCGUUUCACAUCCAUGACACGACUCUACUAUAGAGAUGCUUCUGCCUGUGUUAUUAUGUUUGACGUCACCAAUGCCACUACUUUCAGCAACAGCCAAAGAUGGAAACAGGAUCUGGACAGCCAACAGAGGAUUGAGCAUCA: 0.146 ratio
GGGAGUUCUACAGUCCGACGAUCGUUGUUCAUAUCCCAAAAACUUUUAUAGGUAACUGUUUUCAAAUAGAAAACGUUUUAUUUGGUCAAUUUGAAUGUCAUUCUAAUUAUAAAAAUGACUUACACCUUUAUCAAUUGGUUACUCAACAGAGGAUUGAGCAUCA: 0.844 ratio
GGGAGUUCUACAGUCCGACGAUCUUACUUUUAACUCCAUGGGUUAAAUUCCUGUGGGAGUCUUACAGGCAGUGUUUGGACCUUCUUAGAAACAAUUCUAGAGUAGAGCGCCUGUACCAUGAUAUUGCCCAGCAAGCUUUCAAACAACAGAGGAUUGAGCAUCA: 0.333 ratio

Study 2 — method: protein-binding microarray; molecule type: double-stranded DNA, one strand shown; medium: in vitro; tested at: 940 nM top; setting: 60-bp whole probe; together with: salmon DNA 0.4 mg/ml; reference: random background probes; reading: higher = stronger binding; quantity: fitted relative affinity; constant ends, left off below: GCCTAGCAC … GTCTTGATTCGCTTGACGCTGCTG
Target: Interferon regulatory factor 5, full length, phosphomimetic (IRF5, Homo sapiens, UniProt Q13568-2, residues 1-514, S451D/S453D/S456D/S462D)
TTAGGACTGGACTATCGGTCAGTGCTA: -0.283 z-score
GACGGTTTCGGTATTGGGACGTGCTAG: 12 z-score
TGTGCTTTCCTGATGACCCTGTGCTAG: 0.391 z-score
TCACTTTACACACATCATCTTGTGCTA: 1.37 z-score
TCAATTACCTCATCTTTCACTGTGCTA: 1.29 z-score
CACGGTATCGGGTATCGGGACGTGCTA: 5.1 z-score
TTGCTTGTGTTTATTGTGACGTGCTAG: 0.244 z-score
TTACATATCAGTATCGATTAGTGCTAG: 5.58 z-score
TTAGAACTGGCGACTGGATTAGTGCTA: -0.265 z-score
TCAGAAATCTCAATGGGACTGTGCTAG: 0.0718 z-score
GACGGACTGGACAATCGGGACGTGCTA: -0.681 z-score
TCAATATTATATCTGTGACTGTGCTAG: 0.519 z-score
GACGGCTCCCTTTTCCTGACGTGCTAG: 0.118 z-score
TTAGGACTGGGGCCTGGGTTAGTGCTA: -0.546 z-score
GTCGGTTTCCTACTGCTGACGTGCTAG: 1.76 z-score
TTAGACTTCGGGTATCGATTAGTGCTA: 2.46 z-score
TTTCATTTATTTACTCTCTACGTGCTA: 6.12 z-score

Study 3 — method: RNA Bind-n-Seq; molecule type: RNA; medium: in vitro; tested at: 365 nM; reference: no-protein control; reading: higher = stronger binding; quantity: RBNS enrichment (R)
Target: RNA binding protein fox-1 homolog 2, RRM domain, GST-SBP tag (RBFOX2, Homo sapiens, UniProt O43251-10, residues 100-194)
Setting: natural RNA segment, single round, ends assumed
Construct (chain): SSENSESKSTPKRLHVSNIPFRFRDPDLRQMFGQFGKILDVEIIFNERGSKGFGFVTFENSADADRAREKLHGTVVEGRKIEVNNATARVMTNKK
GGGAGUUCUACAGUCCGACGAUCCACUGGCGUGUGGCACUCUGGCUACAAACUGCUGACCCAGGGGUUCCAGACACUGCUCACUCACUGGGUGCUGUGCUGUGGCUAGUGUAUGGCUUGUACCCAGAUGGCGCUGGAAUUCUCGGGUGCCAA: 0.335
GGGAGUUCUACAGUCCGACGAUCUCUUUUAUAAAUAAGUUUUACAAAAUUUUCCUCUUUUGUUUAUUGACUAGAUUGUAUAUAAUUUUCUUUUUUCCAAAAUAUUGUGAUAAGAAAUUUCUAGACACAACAGCUGGAAUUCUCGGGUGCCAA: 1.85
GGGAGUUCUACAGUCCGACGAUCAUACUUGUUUGAUAUUUUUUCACCUUUUGAGCCCUUUUCCCAAAGAAUUCAAUAUCAGUUUAGUAGCAACAGUACAGUUGCCAUUUAAAUUGGUUUAGUUGCUGUAUAUCUGGAAUUCUCGGGUGCCAA: 0.796
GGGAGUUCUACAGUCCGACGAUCGGAUCUUCAGAAUUCUAAAGGCACAUGUUAGAAUGCAGAGUCCUGAUGACCUGUCAAUAAACUUUUUUUUACUAAUGAACUGUACAUUUAAAUAAAAGUUUAUUUUUGGGUGGAAUUCUCGGGUGCCAA: 1
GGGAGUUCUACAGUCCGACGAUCACACCUAGAGGUUGAUUUCCUUUUUCAUCGAUGGUACUAUUUCUUAGUGUUUUAAAUUGGAACAUAUCUUGCCUCAUGAAGCUUUAAAUUAUAAUUUUCAGUUUCUCCCCUGGAAUUCUCGGGUGCCAA: 0.365
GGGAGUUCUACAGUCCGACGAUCGGAGCUGUGGUGUGGUCUGUCCUGUAUGGUGGCCAGUGCUUUCUGCCAGCAUUUCUGGAUGGAUAUAGGGACUAUCAUUAGUAUCCUAAUACACGGUGAUUUUAAAACAAUGGAAUUCUCGGGUGCCAA: 0.235
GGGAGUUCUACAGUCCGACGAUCGUUCCCUGUUAACCUUCUGUUACUCCCUGGGAGAAAGGCGCUGAGCGUGGCAUGCAGGUGUCUUUGCUGUGUUUUUCUCCACUUCUAAAUGGUUCCUGGUUCCUUUCUUCUGGAAUUCUCGGGUGCCAA: 0.276
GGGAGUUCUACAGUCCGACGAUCGUUUCCUUUUUUGUUUUUAAAUCCUUCUCUAGUGACUGAAGAAAUUGUGAGUACAUAAUAUUUAGGUCAUGGUUAAGGAACAUUAAAAUAAACCUGCAGUUUAACAGAAUUGGAAUUCUCGGGUGCCAA: 0.433
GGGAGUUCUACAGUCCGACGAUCAAUGUAAAGACUCUGCCUUUGCGAAGCCAGCUGCAGUGCUGUAGGCCCCCAAGUUCCCUAGCAAGCUGCCAAACCAAAACGGGCACCACCAGCUCAGCUGAGGCAUCCCAUGGAAUUCUCGGGUGCCAA: 0.388
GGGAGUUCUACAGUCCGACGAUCGCAAGGUAUUAAAAUGCAUUUAUAAAUUCUUCUUGGCUUCAUUCAUGAAUAAACGUGUUAGCAAUUUAAAACAUGUCCUUAUUUGAAAUAACUUGAAAGUGCUUAAUAUGUGGAAUUCUCGGGUGCCAA: 0.473
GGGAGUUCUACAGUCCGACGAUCAAUGGUACAGCCACUAAGUAUCACCAGAAAACCAGAAGCCCAGGAUCUUCUGCCUCCGCCAGCCUGUGAGCUGUUUCCAUGUUUUCAAAGCACAGCAGCAGUCGCUUCUGUGGAAUUCUCGGGUGCCAA: 0.471
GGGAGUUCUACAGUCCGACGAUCGGACCAAUGGGCCCAAGAUAGGUGCCCCAGAGCUGUUAAUGACUUCAGCUGCCUCACUUCCUGCAAGAUUGGCCUGUGGCAUCUUUGCCUUGGGUGUUGGCCACAGGGUCUGGAAUUCUCGGGUGCCAA: 0.475

Study 4 — method: protein-binding microarray; molecule type: double-stranded DNA, one strand shown; medium: in vitro; tested at: not given; reading: higher = stronger binding; quantity: E-score
Target: Myc proto-oncogene protein, bHLH-zipper, MAX partner unstated (MYC, Homo sapiens, UniProt P01106, residues 368-449)
Chain of UniProt P01106 (368-449, looked up): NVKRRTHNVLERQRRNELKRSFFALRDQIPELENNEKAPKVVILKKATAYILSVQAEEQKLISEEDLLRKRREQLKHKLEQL
Setting: k-mer, scored over probes, only values ≥0.25
ACCACGCC: 0.422
CACCTGTC: 0.279
ACGCGCGT: 0.37
ACTCGTGA: 0.291
CAGGTGGG: 0.348
GGGGAGCA: 0.267
TGCATGCA: 0.339
ACGGCACG: 0.326
CATGCGCG: 0.411
GGGTGGGA: 0.273
ACGCCCCG: 0.309
GCATGCCA: 0.393
CAGATGGC: 0.263
CTCCCCAC: 0.316
CAGCGTGC: 0.409
GGCCACAC: 0.296
ACGCTACG: 0.31
AGCATATG: 0.309
AGGAACGC: 0.25
ACACGCCG: 0.395
GGTGGCGA: 0.332
CGTGTTCA: 0.394
AACGCATG: 0.462
CACCTGGC: 0.34
ATCACATG: 0.436

Excerpt of the above (study 4):
TGCATGCA: 0.339
CGTGTTCA: 0.394
GCATGCCA: 0.393
CAGGTGGG: 0.348
GGTGGCGA: 0.332
AGGAACGC: 0.25
CATGCGCG: 0.411
